# Measurements from different studies.
# Compare with care: the assays were run in different laboratories.
# Organism: Staphylococcus aureus
Structure (SMILES),test,system,conditions,MIC
CC[C@H](C)[C@H](NC(=O)[C@@H](CCCNC(=N)N)NC(=O)[C@H](CCCNC(=N)N)NC(=O)[C@H](CO)NC(=O)[C@H](Cc1c[nH]c2ccccc12)NC(=O)[C@H](CCCNC(=N)N)NC(=O)[C@@H]1CCCN1C(=O)[C@H](CCCNC(=N)N)NC(=O)[C@@H]1CCCN1C(=O)[C@H](CC(C)C)NC(=O)[C@H](Cc1ccc(O)cc1)NC(=O)[C@@H]1CCCN1C(=O)[C@@H]1CCCN1C(=O)[C@H](CCCCN)NC(=O)[C@H](CC(=O)O)NC(=O)[C@@H](N)C(C)C)C(=O)N[C@@H](Cc1ccc(O)cc1)C(=O)N[C@@H](CC(N)=O)C(=O)N[C@H](CCCNC(=N)N)C(N)=O,broth microdilution,DSM 6247,"18 h, 37 °C, 25% MHB2",64 µg/mL
C#CCOc1ccc(CN[C@@]2(C)C[C@H](O[C@H]3[C@H](Oc4c5cc6cc4Oc4ccc(cc4Cl)[C@@H](O)[C@@H](NC(=O)[C@@H](CC(C)C)NC)C(=O)N[C@@H](CC(N)=O)C(=O)N[C@H]6C(=O)N[C@H]4C(=O)N[C@H](C(=O)N[C@H](C(=O)O)c6cc(O)cc(O)c6-c6cc4ccc6O)[C@H](O)c4ccc(c(Cl)c4)O5)O[C@H](CO)[C@@H](O)[C@@H]3O)O[C@@H](C)[C@H]2O)cc1OC,broth microdilution,"VISA LIM-2, tryptic soy broth","20 to 24 h, 37 °C, 0.002% polysorbate 80",16 µg/mL
COc1ccc2ccc(O)c(/C=N/[C@H]3CCCC[C@H]3/N=C/c3cc(F)ccc3O)c2c1,"bacterial growth, broth microdilution",vancomycin-intermediate,,> 40 µM
Cc1ccc2nc(C)c(C(=O)C(=O)NCc3ccc(N(C)C)cc3)n2c1,"microbial growth, broth dilution",,,> 128 µM
CNC(C)C1CCC(N)C(OC2C(N)CC(N)C(OC3OCC(C)(O)C(NC)C3O)C2O)O1 (stereo not shown),,clinical isolate,"18 to 20 h, 37 °C",2 µM
CC[C@H](C)[C@H](NC(=O)[C@H](CC(C)C)NC(=O)[C@H](CCCNC(=N)N)NC(=O)CNC(=O)CNC(=O)[C@H](CCCCN)NC(=O)[C@H](CCCNC(=N)N)NC(=O)[C@H](CC(C)C)NC(=O)[C@H](CC(C)C)NC(=O)[C@H](CCCNC(=N)N)NC(=O)[C@@H](NC(=O)[C@H](CC(C)C)NC(=O)[C@@H](N)CO)[C@@H](C)O)C(=O)NCC(=O)N[C@@H](Cc1c[nH]c2ccccc12)C(=O)N[C@@H](CCCNC(=N)N)C(=O)N[C@@H](Cc1c[nH]c2ccccc12)C(=O)N[C@@H](CCC(=O)O)C(=O)N[C@@H](CCCCN)C(=O)N[C@H](C(=O)N[C@@H](CCCNC(=N)N)C(=O)N[C@@H](CC(N)=O)C(=O)N[C@@H](Cc1c[nH]c2ccccc12)C(=O)N[C@H](C(=O)N[C@@H](CCCNC(=N)N)C(=O)N[C@@H](CCCNC(=N)N)C(=O)N[C@H](C(=O)N[C@H](C(=O)N[C@@H](CCC(=O)O)C(=O)N[C@@H](CCCCN)C(=O)N[C@@H](CCCNC(=N)N)C(=O)N[C@@H](CCCCN)C(=O)N1CCC[C@H]1C(=O)N[C@@H](CC(N)=O)C(=O)N[C@@H](CCCCN)C(=O)O)[C@@H](C)CC)[C@@H](C)CC)[C@@H](C)CC)[C@@H](C)O,broth microdilution,ATCC 25923,,1.24 log10 µg/mL
CCn1ccn(CC)c1=[Se],"microbial growth, broth dilution",ATCC700699 VISA,"24 h, drug-resistant strain",> 40 µM
Oc1c(Br)cc(Br)c2nc3cc(Cl)ccc3nc12,broth microdilution,25923,,0.3 µM
CC[C@H](C)[C@H](NC(=O)[C@@H](CCC(=O)O)NC(=O)[C@H](CC(C)C)NC(=O)c1cccc(-c2ccccn2)n1)C(=O)N[C@H]1CCCCNC(=O)[C@H](CC(N)=O)NC(=O)[C@@H](CC(=O)O)NC(=O)[C@H](Cc2c[nH]cn2)NC(=O)[C@@H](Cc2ccccc2)NC(=O)[C@H]([C@@H](C)CC)NC(=O)[C@@H](CCCN)NC1=O,,USA300 methicillin-resistant,"18 h, 37 °C, 0.3 mM ZnSO4 LB",> 64 µg/mL
CCCCCCCCCC(=O)NCCCC[C@H](NC(=O)[C@H](CCCCN)NC(=O)[C@@H]1CSCC(=O)N[C@@H](CCCCN)C(=O)N[C@@H](CC(C)C)C(=O)N[C@@H](CCCCN)C(=O)NCCCC[C@@H]2NC(=O)[C@H](CCCCN)NC(=O)[C@H](CC(C)C)NC(=O)[C@H](CCCCN)NC(=O)CSC[C@H](NC(=O)[C@H](CC(C)C)NC(=O)[C@H](CC(C)C)NC(=O)[C@H](CCCCN)NC2=O)C(=O)N[C@@H](CC(C)C)C(=O)N[C@@H](CC(C)C)C(=O)N[C@@H](CC(C)C)C(=O)N1)C(N)=O,broth microdilution,"Newman, methicillin-susceptible",,64 µg/mL
CC(C)CCCCCCCCC/C=C/C(=O)N[C@@H](CC(N)=O)C(=O)N[C@H]1CNC(=O)[C@@H]2CCCN2C(=O)[C@H](C(C)C)NC(=O)[C@@H](CN)NC(=O)CNC(=O)[C@H](CC(=O)O)NC(=O)CNC(=O)[C@H](CC(=O)O)NC(=O)[C@H](CC(=O)O)NC(=O)[C@H]2CCCCN2C1=O,broth microdilution,"BR-VRSA strain 880, Mueller-Hinton broth, Mg2+ 10 mg/L","16 h, together with: Ca2+ 2.5 mM",2 µg/mL
CN[C@H](CC(C)C)C(=O)N[C@H]1C(=O)N[C@@H](CC(N)=O)C(=O)N[C@H]2C(=O)N[C@H]3C(=O)N[C@H](C(=O)N[C@H](C(=O)NCC(N)=O)c4cc(O)cc(O)c4-c4cc3ccc4O)[C@H](O)c3ccc(c(Cl)c3)Oc3cc2cc(c3O[C@@H]2O[C@H](CO)[C@@H](O)[C@H](O)[C@H]2O[C@H]2C[C@](C)(NCc3ccc(OCc4cn(CC(=O)N[C@H](C(=O)N[C@@H](CCN)C(=O)N[C@H]5CCNC(=O)[C@H]([C@@H](C)O)NC(=O)[C@H](CCN)NC(=O)[C@H](CCN)NC(=O)[C@H](CC(C)C)NC(=O)[C@@H](CC(C)C)NC(=O)[C@H](CCN)NC5=O)[C@@H](C)O)nn4)c(OC)c3)[C@H](O)[C@H](C)O2)Oc2ccc(cc2Cl)[C@H]1O,broth microdilution,"VISA LIM-2, tryptic soy broth","20 to 24 h, 37 °C, 0.002% polysorbate 80",2 µg/mL
CC[C@H]1OC(=O)[C@H](C)[C@@H](OC(=O)Cc2ccc([N+](=O)[O-])cc2)[C@H](C)[C@@H](O[C@@H]2O[C@H](C)C[C@H](N(C)C)[C@H]2O)[C@](C)(OC)C[C@@H](C)C(=O)[C@H](C)[C@@H](O)[C@]1(C)O,microbial growth,BAA976,,1 µg/mL

# A few entries again:
Structure (SMILES),test,system,conditions,MIC
CN[C@H](CC(C)C)C(=O)N[C@H]1C(=O)N[C@@H](CC(N)=O)C(=O)N[C@H]2C(=O)N[C@H]3C(=O)N[C@H](C(=O)N[C@H](C(=O)NCC(N)=O)c4cc(O)cc(O)c4-c4cc3ccc4O)[C@H](O)c3ccc(c(Cl)c3)Oc3cc2cc(c3O[C@@H]2O[C@H](CO)[C@@H](O)[C@H](O)[C@H]2O[C@H]2C[C@](C)(NCc3ccc(OCc4cn(CC(=O)N[C@H](C(=O)N[C@@H](CCN)C(=O)N[C@H]5CCNC(=O)[C@H]([C@@H](C)O)NC(=O)[C@H](CCN)NC(=O)[C@H](CCN)NC(=O)[C@H](CC(C)C)NC(=O)[C@@H](CC(C)C)NC(=O)[C@H](CCN)NC5=O)[C@@H](C)O)nn4)c(OC)c3)[C@H](O)[C@H](C)O2)Oc2ccc(cc2Cl)[C@H]1O,broth microdilution,"VISA LIM-2, tryptic soy broth","20 to 24 h, 37 °C, 0.002% polysorbate 80",2 µg/mL
